Published values collected from several papers.
Numbered parts are unrelated; each lists some results of a single study. Substitutions count along the parent as printed.

Block 1 — method: protein-binding microarray; form: double-stranded DNA, one strand shown; medium: in vitro; concentration: 250 nM; notes: 60-bp whole probe; added: salmon DNA 0.4 mg/ml; reference: random background probes; reading: higher = stronger binding; all sequences stand within: GCCTAGCAC … GTCTTGATTCGCTTGACGCTGCTG
Target: Interferon regulatory factor 7, full length, phosphomimetic (IRF7, Homo sapiens, UniProt Q92985, residues 1-503, S101K/S471D/S472D/S475D/S476D/S477D/S483D/S484D/S487D)
Target sequence (chain): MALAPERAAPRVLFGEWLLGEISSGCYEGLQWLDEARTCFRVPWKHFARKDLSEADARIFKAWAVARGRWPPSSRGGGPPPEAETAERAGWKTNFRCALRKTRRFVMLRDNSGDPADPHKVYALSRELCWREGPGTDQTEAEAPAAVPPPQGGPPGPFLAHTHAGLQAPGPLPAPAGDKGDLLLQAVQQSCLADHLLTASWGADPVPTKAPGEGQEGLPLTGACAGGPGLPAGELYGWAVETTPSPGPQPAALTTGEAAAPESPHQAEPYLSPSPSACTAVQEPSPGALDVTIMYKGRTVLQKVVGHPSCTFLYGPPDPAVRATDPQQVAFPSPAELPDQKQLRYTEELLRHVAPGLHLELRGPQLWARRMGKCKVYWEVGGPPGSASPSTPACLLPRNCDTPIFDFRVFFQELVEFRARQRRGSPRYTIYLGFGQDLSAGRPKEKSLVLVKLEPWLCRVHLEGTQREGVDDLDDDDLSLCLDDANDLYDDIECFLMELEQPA
Strand | log fluorescence [z-score]
AGAGCCTGGGGATGCAGAGAGTGCTAG | -1.14
TTAGATATAAGACTGGATTAGTGCTAG | -0.145
GACGGTTTCCTACTGTTGACGTGCTAG | 1.53
ATAGGTTTCGACTTTCGGTTAGTGCTA | 11.4
TCACCTCTCCCCTCTTGTACTGTGCTA | 0.0249
GACGATTTCAGTAGCGAGACGTGCTAG | 0.145
TTAGGTCTCCTTCGCCTTTAGTGCTAG | 0.158
TTAGGTTTCGGGATTCGGTTAGTGCTA | 8.35
GACGGACTGCTTATCCTCACGTGCTAG | -0.0625
TTAGAACTGAGTCACGATTAGTGCTAG | 0.277
TCACCAATGCTTCTGGTACTGTGCTAG | -0.742
TTAGAACTGAGCATCGATTAGTGCTAG | -0.272
TCAACTTTCTCTGCTCTTACTGTGCTA | 0.336
TAAGGACTGGGTCTCGGTTAGTGCTAG | 1.2
AGTGAATTAGGTTTCACTTTGTGCTAG | 7.14
GACGGTCGCCTTTTCCTGACGTGCTAG | 0.198
GACGGACCGGACTATCGGGACGTGCTA | -0.513
CTGAGAATGGGGTTTGCAGCCGTGCTA | -1.02
TCACTTCTTGAACTCTTACTGTGCTAG | 0.847

Block 2 — method: RNA Bind-n-Seq; form: RNA; medium: in vitro; concentration: 365 nM; reference: no-protein control; reading: higher = stronger binding
Target: RNA binding protein fox-1 homolog 2, RRM domain, GST-SBP tag (RBFOX2, Homo sapiens, UniProt O43251-10, residues 100-194)
Notes: natural RNA segment, single round, ends assumed
All sequences stand within: GGGAGUUCUACAGUCCGACGAUC … UGGAAUUCUCGGGUGCCAA
Residues (chain): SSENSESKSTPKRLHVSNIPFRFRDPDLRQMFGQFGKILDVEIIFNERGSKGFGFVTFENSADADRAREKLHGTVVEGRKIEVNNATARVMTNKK
Strand | RBNS enrichment (R)
CAUUUGUCCCCCAACCCCACUGAGAACUAAAUGCUGUACCACAGAGCCGGGUGUGAACUAUGGUUUAGAAGGUUCAAGUUUCCAAUUAAAGUCAUUGAAGAAAACUUGAA | 0.406
GAAGACAUCUAGAAACAUUACACCACACACACCGUCAUCACAUUUUCACAUGCUCAAUUGAUAUUUUUUGCUGCUUCCUCGGCCCAGGGAGAAAGCAUGUCAGGACAGAG | 0.75
UGUUUUGCUGGCACAUUAAUCAUAGAUAAAGAAAGAUUGAUGGACUUAGCCCUCAAAUUUCAGUAUCUAUACAGUACUAGACCAUGCAUUCUUAAAAUAUUAGAUACCAG | 0.273
UGCCCCCAGCGUGGGGCUAACGGGCGCCUUGUCUGUGUAUUUCUAUUUUGCAGCAGUACCAUCCCACUGAUAUCACGGGCCCGCUCAACCUCUCAGAUCCCUCGGUCAGC | 0.286
GAGACCUCUCUGAUUCAGAAACACACUUCUACCUCUUUACUGUUAACUCCAACAGAUGUAGCCAGCAGCCUGGGCACUUGUGUUAGUGGUGCCGUUUGCUGGCUUCUCCA | 2.45
CUCUCAUGCUGUUUCUCUCAGAUGUUCCCAUGAUGGUUGCCAAGGACACUUGAUAGAAAGACUACUGGUUAAACACAAUAAACAAAGUUCAUUAUUCACUUAUUAGCAAG | 0.73
AUAAGCCAGAAAGGGUUACUGAGCCACCUUAAGCUAGUACCUAUAUAGUAGGCAAAAAGUACAGAAAUAGAUGCAAUAAGUGUGGUGAGUCUUUGAGCCUACGAGUCAUG | 0.465
UUGGGCAAAUGAAACCAUAAACUCCGACUGGCUUCUGUAGAUGCCAAAGGGCUCUUUUUCAGCUAACCCUGGGAAGGCUCUGUGGGAGGGAGGUCGGAGCCAGCUGUUUC | 0.41

Block 3 — method: DHFR PCA, dose-response; medium: yeast; notes: Hill fit, mean, not affinity; added: (+)-ABA, dose series; reading: lower = more sensitive
Target: ABI1, truncated, D143A, DHFR fusion (Arabidopsis thaliana, UniProt P49597)
Starting sequence: PYL1, truncated, DHFR fusion (Arabidopsis thaliana, UniProt Q8VZS8); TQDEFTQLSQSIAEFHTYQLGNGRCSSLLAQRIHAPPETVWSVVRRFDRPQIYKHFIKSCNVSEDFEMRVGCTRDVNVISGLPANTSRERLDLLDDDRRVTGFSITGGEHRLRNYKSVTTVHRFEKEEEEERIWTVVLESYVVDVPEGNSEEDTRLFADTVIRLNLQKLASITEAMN
Substitution | ABA EC50
K116G | 168 µM
E64T | 2.85 µM
T86Q | 13 µM
F56G | 434 µM
H122C | 95.7 µM
E64V | 3.96 µM
E128S | 1.98 µM
N22H | 1.84 µM
K58Y | 10.9 µM
E130W | 11.9 µM
T101A | 13.5 µM
E151S | 3.16 µM
E125W | 3.12 µM
V137C | 72.8 µM
R32G | 21.1 µM
T154A | 16 µM
R24H | 10.8 µM
N114A | 50.5 µM
S150F | 66.1 µM
R32Y | 3.53 µM
L91C | 19.7 µM
R88F | 2.35 µM
L28C | 14.6 µM
E4Q | 2.5 µM
H55I | 0.32 µM

Block 4 — target: CCNF, cyclin fold, Cln2 fusion (human); method: yeast growth competition, sequencing; medium: yeast; notes: strong parent motif; reference: not given; reading: higher = stronger binding
Starting sequence: RB1 docking peptide (human); PKPLKKLRFDIEG
Substitution | normalised enrichment score
PKPLHKLRFDIEG [K5H] | 1.02
PKPLKCLRFDIEG [K6C] | 1.22
GKPLKKLRFDIEG [P1G] | 0.917
PKPLKKLRFDIEI [G13I] | 2.27
PKPLKLLRFDIEG [K6L] | 0.933
PKPLKHLRFDIEG [K6H] | 1.14
PKPLKKFRFDIEG [L7F] | 0.255
PKPLKKLRFDKEG [I11K] | 1.14
PKPLKKLRFDYEG [I11Y] | 0.944
PKCLKKLRFDIEG [P3C] | 5.15
PKPLKKLNFDIEG [R8N] | 2.31
PKPLKKMRFDIEG [L7M] | 0.382
PKPSKKLRFDIEG [L4S] | 2.65
PKNLKKLRFDIEG [P3N] | 0.355
PKPLKKLRFFIEG [D10F] | 4.26
PKGLKKLRFDIEG [P3G] | 1.73
PKPLKKLRFDIED [G13D] | 2.09
VKPLKKLRFDIEG [P1V] | 1.06
PKPLKKLRFDIQG [E12Q] | 0.688
PKPLKKLKFDIEG [R8K] | 0.705
PKPLAKLRFDIEG [K5A] | 0.493
PKPLKKLRFDHEG [I11H] | 2.18
PKPLKKLRCDIEG [F9C] | 0.528
PDPLKKLRFDIEG [K2D] | 0.432
PKPLKKLSFDIEG [R8S] | 1.92

Block 5 — method: protein binding microarray; form: double-stranded DNA, one strand shown; medium: in vitro; concentration: not given; reference: not given; reading: higher = stronger binding
Target: Histone acetyltransferase KAT6A, winged helix 1, GST fusion (KAT6A, Homo sapiens, UniProt Q92794, residues 1-85)
Notes: 8-mer, flanks averaged, mean of 2 arrays, mostly near background
Construct (chain): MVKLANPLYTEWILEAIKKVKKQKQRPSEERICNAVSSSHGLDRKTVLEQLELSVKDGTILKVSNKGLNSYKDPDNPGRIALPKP
Strand | E-score
ACAAACGA | -0.111
CGAATACG | 0.0909
AAAGATTT | -0.031
AACCAGGT | -0.236
AATATACT | -0.201
GCTACACA | -0.0362
GGGAAACA | 0.0347
CATTAACG | -0.038
GATGTGAA | -0.232
CTCGAAAA | -0.224
CAGATTAG | -0.163
TGGGCTAA | -0.179
ACACTCAT | -0.134
CCGAATAA | -0.107
CGGCATAC | 0.336
TAAAGCCA | -0.2
GTACACAA | -0.092
CTTATATA | -0.152
TCTTGACA | -0.174
ACGGCCCA | 0.259
AGTACTCC | 0.00611
ACTCTCGC | 0.11
ATAAGGCC | 0.0878
GGCTTCAA | 0.0195

Some of these lines once more (block 3):
Substitution | ABA EC50
N22H | 1.84 µM
K58Y | 10.9 µM
E130W | 11.9 µM
T101A | 13.5 µM
E151S | 3.16 µM
E125W | 3.12 µM
V137C | 72.8 µM
R32G | 21.1 µM
T154A | 16 µM
R24H | 10.8 µM
N114A | 50.5 µM
S150F | 66.1 µM
R32Y | 3.53 µM
L91C | 19.7 µM
R88F | 2.35 µM
L28C | 14.6 µM
